Published values from different studies.
Every numbered part comes from another study and shows a few of its results, in no order.

Study 1
Target: PABPC1L2, full length, GST fusion (mouse, UniProt A0ABA7IW68)
Method: RNAcompete
Form: RNA
Sample: in vitro
Tested at: 20 nM
Setting: 7-mer, probes averaged, single round
Baseline: mean of 7-mers
Reading: higher = stronger binding
Residues (chain): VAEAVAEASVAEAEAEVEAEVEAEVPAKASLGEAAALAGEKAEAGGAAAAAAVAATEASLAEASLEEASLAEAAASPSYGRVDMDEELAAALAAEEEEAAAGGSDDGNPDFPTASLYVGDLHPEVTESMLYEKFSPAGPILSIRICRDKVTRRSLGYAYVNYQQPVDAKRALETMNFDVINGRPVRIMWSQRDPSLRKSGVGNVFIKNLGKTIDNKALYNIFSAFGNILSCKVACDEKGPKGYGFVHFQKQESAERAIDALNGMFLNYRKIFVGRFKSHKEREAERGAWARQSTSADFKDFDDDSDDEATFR
Sequence	7-mer Z-score
UAGACGC	-0.199
UAGCGUU	-0.253
UAAAGGU	0.566
UGCGGUC	-0.0718
CCGUCGA	-0.322
AUGCGCA	-0.00652
CACCGCA	-0.224
CAUGUAU	-0.2
CCUUGGG	-0.293
UUGACAA	-0.106
AGGCCAC	-0.0989
CCUCUGU	-0.396
AGAUAGC	-0.24
AGUUUCG	-0.396
CAAAAAU	20
GAGUCUU	-0.499
AGAGCCC	-0.271
CAGAGGU	0.0877

Study 2
Target: Phosphate system positive regulatory protein PHO4, full length, GST-tagged (PHO4, Saccharomyces cerevisiae, UniProt P07270, residues 1-312)
Method: competition protein-binding microarray
Form: double-stranded DNA, one strand shown
Sample: in vitro
Tested at: 2 µM
Setting: whole 60-bp probe, lowest competitor level
Added: Cbf1 competitor, 0.05 µM
Reading: higher = stronger binding
Constant ends, left off below: … GTCTTGATTCGCTTGACGCTGCTG
Residues (chain): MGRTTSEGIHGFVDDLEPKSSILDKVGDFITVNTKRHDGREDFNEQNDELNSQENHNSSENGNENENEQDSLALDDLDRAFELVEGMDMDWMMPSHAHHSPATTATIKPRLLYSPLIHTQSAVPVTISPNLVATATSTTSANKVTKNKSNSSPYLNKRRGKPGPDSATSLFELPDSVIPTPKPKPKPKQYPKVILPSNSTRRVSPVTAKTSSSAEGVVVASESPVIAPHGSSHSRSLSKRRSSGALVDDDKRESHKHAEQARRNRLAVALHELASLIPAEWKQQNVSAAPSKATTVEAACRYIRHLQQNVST
Sequence	fluorescence intensity [a.u.]
GTCTTGTCTCATTGTCACCGTACTTTCCCCACTTCA	4490
GACCACAAAAGGATGCACGATCAGAAGCACTGTACC	7440
GAAACCATCTTTTTCAACGTGTTGGAAACAGTAGGT	9170
TAAACTTTCTACGGCCACGTGTAACCTCTTTCAGAA	16400
GAAATCAGAGAAGGTCCCGTGTCGGTAGGTACCTTA	6260
TCCAGGTTGCCCTGCAAGGTGACAGGGTTCTTGTTT	3600
CGGGGTTAAGTTTGCGTGGTGGGTGGCTTGCAGCAG	6380
CGGATCGCATTATTGCACGATATCGCCGAATCTTTA	6500
GCCACTCTAGACCGTCACATGTCCAATGTTTCTTTT	8800
TGCGCAACAACTTGTGGCGTGGGTGTATGTCTAGAA	6790
ACCTATGCTAAAATTCACGTGTAGGCATTTCAAAAT	14600
TGCGCAACAACTTGGGTGGTGGGTGTATGTCTAGAA	4870
CATTGGTAATGTAACCACGTTTTGAGCCTGAAATGG	13100
GCGCGAACAAACTTGGTCATGACAGCTCCACCGGCA	2470
GTCTTGTCTCATTTTCACGTGGGCTTCCCCACTTCA	13500
TTATATTGTGTGAAGCACATGCCACACTTTCCAAAA	10900
CCCCGAAATTGAGTGCACATGCTCGCAAGATAATAT	10200
TGCGCAACAACTTGGAAGGTGGGTGTATGTCTAGAA	4620
CTTTCCCGATCTTGGTTGGTGGGTGTAGCACATTTG	5140

Study 3
Target: RNA binding protein fox-1 homolog 2, RRM domain, GST-SBP tag (RBFOX2, Homo sapiens, UniProt O43251-10, residues 100-194)
Method: RNA Bind-n-Seq
Form: RNA
Sample: in vitro
Tested at: 365 nM
Setting: natural RNA segment, single round, ends assumed
Baseline: no-protein control
Reading: higher = stronger binding
Constant ends, left off below: GGGAGUUCUACAGUCCGACGAUC … UGGAAUUCUCGGGUGCCAA
Target sequence (chain): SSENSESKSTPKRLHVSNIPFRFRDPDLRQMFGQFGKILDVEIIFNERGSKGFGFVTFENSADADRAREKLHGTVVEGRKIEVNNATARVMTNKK
Sequence	RBNS enrichment (R)
AAGGGAGUCUUGUAAAGUUGCCGAGGGUAGGUUCAUCUCCAGGUUUCGGGAUUCCCAUCCGUCCUGGCGAUCCUGCCAGCAGUGGGUGGGCAGCCUGAGCUCCCUCGGGC	0.244
UAUGAACGUAGUGUAGAGAAGCUGCCCUCCUCUUCCAUGGUAGCGCUCAAAGCCCUAAUGGAAGUUUAGCUCAUUUACAUUUGGAGACCCUUUUGGUUUUUUGGUUUUGG	0.482
GCAUUUUCUGGAUGCAAAGGCACUAGCCCAUUUGAAAAUUAAUAUUCCGUGCCUCUGGGCCAAGAGGUCAGCUUUCUGCACGAGGAGAAAAACAGUAACUGCUGUUUGUU	8.57
GGGUGGGACUCUUAUUUUGGGUAGCCAUUUAUUGACUUCACCUUUUUGCCAAGGACGUUUGUCUCAAGGGAAAAGCAGUUUUCUGUGGGGCUUAUUAAAGGAAUGUUGGU	0.697
GCUUGAAUUUCUCCCCAGAAAAUGGGUUUUUCUUUUCUAUUGCAUAGUCAGGCUGCAAAUUUCCAAACUUUUAUGCUUUGCUUCCCUUAUUUAUAAGGGAAUGCCUUUAA	0.499
AAGCAGUGUUAGUGAGAGGUGCAAAGAAUUAUUCUAACAGACACCUGAAAGUAUCUGUAAGCAAUACUAGUAGGUAAGAUUUCACUGUGUGUACACAUACACAUUUGAGA	0.397
GUACAUCUAACUAGGACUCAGAAAGAGCUCCUGCGCAUGGUCAUAGAACAAUGGCGUUCUGUAAUUUCCUUCAUUCUGCUUCAUAGUUGCUGACAUCUCAGAGACGCCAU	17.5
CAUGCUCCCUUUCUCGGCACCCCCUUGUUGGAGAUGGAGGCAGCAGACGUGCAGUGCCAUAAGGUGCCCCAGUCCUUCUGGAGGCCUGGGCUGCUACUGUUGGCCACCCU	0.297

Study 4
Target: Histone acetyltransferase KAT6A, winged helix 1, GST fusion (KAT6A, Homo sapiens, UniProt Q92794, residues 1-85)
Method: protein binding microarray
Form: double-stranded DNA, one strand shown
Sample: in vitro
Tested at: not given
Setting: 8-mer, flanks averaged, mean of 2 arrays, mostly near background
Baseline: not given
Reading: higher = stronger binding
Target sequence (chain): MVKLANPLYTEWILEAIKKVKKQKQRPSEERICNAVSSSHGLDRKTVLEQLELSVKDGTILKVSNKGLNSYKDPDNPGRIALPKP
Sequence	E-score
GACCCCTA	-0.21
CACTTCTG	-0.0912
ACGCGAGC	0.213
CTCGTAAC	0.115
ATGGACCG	0.00688
AAGCAGGC	-0.0828
ATATAGGC	-0.0194
TTAAGCAA	-0.0689
AACGAGCG	0.142
GACTTATA	-0.185
CTATCGGA	0.105
CTATTCGC	0.0199
GACTTTAC	0.0868
AGTTTCAA	-0.174
ACATCTCC	-0.0954
GCGTAGCA	0.144
AATTAACG	0.0599
GTAGCTGA	-0.0794

For quick reference, copied from above (study 2):
Sequence	fluorescence intensity [a.u.]
CGGGGTTAAGTTTGCGTGGTGGGTGGCTTGCAGCAG	6380
CGGATCGCATTATTGCACGATATCGCCGAATCTTTA	6500
GCCACTCTAGACCGTCACATGTCCAATGTTTCTTTT	8800
TGCGCAACAACTTGTGGCGTGGGTGTATGTCTAGAA	6790
ACCTATGCTAAAATTCACGTGTAGGCATTTCAAAAT	14600
TGCGCAACAACTTGGGTGGTGGGTGTATGTCTAGAA	4870
CATTGGTAATGTAACCACGTTTTGAGCCTGAAATGG	13100
